Published values of several laboratories.
Numbered parts are unrelated; each lists some results of a single study. Positions count from the first letter of the parent shown.

Series 1
Target: Interferon regulatory factor 7, full length, phosphomimetic (IRF7, Homo sapiens, UniProt Q92985, residues 1-503, S471D/S472D/S475D/S476D/S477D/S483D/S484D/S487D)
Sequence of UniProt Q92985 (whole entry, unmodified, looked up): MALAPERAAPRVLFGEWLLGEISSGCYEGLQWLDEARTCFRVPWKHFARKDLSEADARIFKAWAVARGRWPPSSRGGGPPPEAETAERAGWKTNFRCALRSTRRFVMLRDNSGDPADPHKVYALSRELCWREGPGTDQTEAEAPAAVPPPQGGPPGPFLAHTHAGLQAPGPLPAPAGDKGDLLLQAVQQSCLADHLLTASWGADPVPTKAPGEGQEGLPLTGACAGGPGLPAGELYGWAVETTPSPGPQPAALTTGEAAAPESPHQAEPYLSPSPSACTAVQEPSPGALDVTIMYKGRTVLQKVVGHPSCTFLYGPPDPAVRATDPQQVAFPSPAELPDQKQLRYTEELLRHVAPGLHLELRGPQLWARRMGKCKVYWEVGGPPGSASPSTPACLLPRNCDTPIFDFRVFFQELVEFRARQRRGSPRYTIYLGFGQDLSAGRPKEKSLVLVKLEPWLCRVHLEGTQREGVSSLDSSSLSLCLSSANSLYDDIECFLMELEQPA
Technique: protein-binding microarray
Form: double-stranded DNA, one strand shown
Matrix: in vitro
Concentration: 2200 nM top
Notes: 60-bp whole probe
With: salmon DNA 0.4 mg/ml
Relative to: random background probes
Reading: higher = stronger binding
Constant ends, left off below: GCCTAGCAC … GTCTTGATTCGCTTGACGCTGCTG
Strand	fitted relative affinity [z-score]
ACCACTTTCCATTTCTGTTTGTGCTAG	10.3
GACGGTATCGGTTTCGGGCCGTGCTAG	2.98
GACGGACTGGGCACTGGGGACGTGCTA	-1.21
GACGGACTGCTTATCCTGGCGTGCTAG	0.165
GTTTGGGTCTTGTCTGGAGTCGTGCTA	0.905
TTAGATTTCAATCTCGATTAGTGCTAG	0.183
TTACGTTTCGGGTTTCGGTTAGTGCTA	9.89

Series 2
Target: CCNE1, cyclin fold, Cln2 fusion (human)
Technique: yeast growth competition, sequencing
Matrix: yeast
Notes: weak parent motif
Relative to: not given
Reading: higher = stronger binding
Starting sequence: ORC1 docking peptide (human); PRARKRLELGNLG
Change	normalised enrichment score
PRARKRLELGNEG [L12E]	0.323
PRARKYLELGNLG [R6Y]	1.02
PRARNRLELGNLG [K5N]	0.793
PVARKRLELGNLG [R2V]	0.105
PRARKRLELGNLD [G13D]	1.01
PRARKGLELGNLG [R6G]	0.864
PRARDRLELGNLG [K5D]	0.35
PRARKRLELKNLG [G10K]	-0.491
PRARKRLEGGNLG [L9G]	0.34

Series 3
Target: Sal-like protein 4, full length isoform A (SALL4, Homo sapiens, UniProt Q9UJQ4, residues 1-1053)
Sequence of UniProt Q9UJQ4 (whole entry, looked up): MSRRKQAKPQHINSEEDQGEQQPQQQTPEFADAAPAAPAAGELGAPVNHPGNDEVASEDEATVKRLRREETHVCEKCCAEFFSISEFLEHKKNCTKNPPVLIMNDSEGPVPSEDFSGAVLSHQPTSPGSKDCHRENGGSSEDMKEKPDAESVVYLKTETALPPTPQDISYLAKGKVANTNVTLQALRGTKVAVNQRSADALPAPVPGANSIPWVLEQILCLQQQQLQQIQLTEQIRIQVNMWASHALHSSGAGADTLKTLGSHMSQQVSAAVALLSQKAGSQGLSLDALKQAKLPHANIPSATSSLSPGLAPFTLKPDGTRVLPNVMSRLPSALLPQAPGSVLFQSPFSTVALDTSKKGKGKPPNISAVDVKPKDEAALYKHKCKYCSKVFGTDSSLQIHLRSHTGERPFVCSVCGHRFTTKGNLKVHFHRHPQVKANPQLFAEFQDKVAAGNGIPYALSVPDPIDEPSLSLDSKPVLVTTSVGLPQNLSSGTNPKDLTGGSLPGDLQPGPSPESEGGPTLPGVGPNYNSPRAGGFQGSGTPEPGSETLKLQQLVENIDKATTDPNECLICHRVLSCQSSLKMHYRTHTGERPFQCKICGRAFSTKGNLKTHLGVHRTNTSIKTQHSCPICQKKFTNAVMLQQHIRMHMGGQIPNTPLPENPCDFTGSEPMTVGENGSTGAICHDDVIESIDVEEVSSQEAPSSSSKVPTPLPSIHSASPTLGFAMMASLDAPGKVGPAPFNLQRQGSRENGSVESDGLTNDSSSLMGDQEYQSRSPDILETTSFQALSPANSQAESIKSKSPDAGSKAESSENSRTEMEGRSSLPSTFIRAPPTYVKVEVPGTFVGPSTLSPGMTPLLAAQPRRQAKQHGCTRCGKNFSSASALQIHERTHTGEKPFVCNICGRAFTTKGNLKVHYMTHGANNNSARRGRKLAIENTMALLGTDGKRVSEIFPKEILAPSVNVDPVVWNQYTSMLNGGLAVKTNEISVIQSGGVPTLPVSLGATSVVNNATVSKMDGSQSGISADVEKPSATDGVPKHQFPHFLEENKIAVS
Technique: universal PBM
Form: double-stranded DNA, one strand shown
Matrix: in vitro
Concentration: 600 nM
Notes: 8-mer, flanks averaged, mean of replicates
Reading: higher = stronger binding
Strand	E-score
GACGACCC	-0.323
AGAAAAAC	0.169
ATTCACCC	-0.0361
ATGTCGAA	0.0321
AGTTTGCC	-0.0473

Mixed results
Molecule	target	assay	system	setting	how to read	endpoint	value
PhoQ, residues 284 288 289 292 302 303 SCKMEA	PhoP, residues 12 14 15 18 19 AGCRL (Escherichia coli, UniProt P23836)	Sort-seq, measured: YFP reporter	E. coli	PhoQ-PhoP variant library, with: 10 µM Mg2+	relative to: high Mg2+ state, higher = stronger signaling	fold induction	9.76

A few entries again (series 3):
Strand	E-score
AGTTTGCC	-0.0473
GACGACCC	-0.323
ATTCACCC	-0.0361
ATGTCGAA	0.0321
